Measured values gathered from unrelated publications.
Every numbered part comes from another study and shows a few of its results, in no order. Substitutions count along the parent as printed.

Series 1 — target: CCNB2, cyclin fold, Cln2 fusion (human); method: yeast growth competition, sequencing; medium: yeast; setting: weak parent motif; relative to: not given; reading: higher = stronger binding
Parent: PKN2 docking peptide (human); VSAVRKLDFSDTM
Variant | normalised enrichment score
K6C | 0.38
K6N | 0.187
R5G | -0.791
R5Y | -0.289
S10R | 0.262
S10V | -0.271
S2L | 0.382
S2I | 0.481
D11H | 0.331
S10H | 0.119
T12W | 0.529
D11V | 0.138
K6G | 0.0486
T12A | 1.15
S10Y | 0.759
S10E | 0.882
D11L | 0.0234
K6S | 0.0235
S10D | 1.56
K6M | 0.404
S2Y | 0.115
L7V | -0.149
T12S | 0.892
R5V | 0.0385
D11Y | 0.236

Series 2 — method: protein binding microarray; molecule type: double-stranded DNA, one strand shown; medium: in vitro; tested at: not given; relative to: not given; reading: higher = stronger binding
Target: Histone acetyltransferase KAT6A, winged helix 2, GST fusion (KAT6A, Homo sapiens, UniProt Q92794, residues 85-181)
Setting: 8-mer, flanks averaged, mean of 2 arrays, mostly near background
Residues (chain): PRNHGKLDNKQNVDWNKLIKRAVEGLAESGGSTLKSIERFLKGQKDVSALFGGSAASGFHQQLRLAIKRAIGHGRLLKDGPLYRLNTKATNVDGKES
Oligonucleotide | E-score
ACTCGCGA | 0.135
CTACTATC | 0.061
AACTCTTG | -0.0469
ACCGGTCG | 0.112
CGTGGATA | -0.206
ACGACACT | -0.0643
GTAAACGA | 0.0901
GGAGTGTA | -0.214
AACTGGAT | 0.0638
AACCCTAA | 0.0259
GTCGTCGA | -0.107
ATAGGGTA | -0.142
AGCATGAT | 0.0306
ACAATTTC | -0.204
AGTGGGTC | 0.105
GTCTCCCA | -0.151
TATGTAAA | 0.00854
ATCCAGGG | 0.0191
AGCGCTAC | -0.0351
AGTTCGAA | 0.109
CTGATCCC | -0.107
CGGGTACC | 0.102
CTTCGCTA | 0.0647
CGTCCCAC | 0.00549
ATTAGTAC | -0.133

Series 3 — method: RNA Bind-n-Seq; molecule type: RNA; medium: in vitro; tested at: 365 nM; relative to: no-protein control; reading: higher = stronger binding
Target: RNA binding protein fox-1 homolog 2, RRM domain, GST-SBP tag (RBFOX2, Homo sapiens, UniProt O43251-10, residues 100-194)
Setting: natural RNA segment, single round, ends assumed
Shared flanks, not repeated: GGGAGUUCUACAGUCCGACGAUC … UGGAAUUCUCGGGUGCCAA
Residues (chain): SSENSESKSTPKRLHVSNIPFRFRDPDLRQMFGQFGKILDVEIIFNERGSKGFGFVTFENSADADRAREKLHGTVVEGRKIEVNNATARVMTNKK
Oligonucleotide | RBNS enrichment (R)
UUUAUUAAACACUGUCUAGAAAAAGAAAGUGAAGCUGAGAACUCUUCCUUUAUUGUGCAUUUAUAUUUUCUGCUGAAUUCCGGUAGUUCCCUUUAAAGUCAUGUUGACUA | 1.08
AGCGUCUUGCAGCUUUUUAUGGUGUUUAUCUAAUACACUUAAGCUGCAGUCCCAAAAUUAGGGGUCCUUCAGUCUUGGAGACUAUAAGGGAGCCUCUGCACCCAGGGAAA | 0.229
UGAUGUGUGGUGACUUCCCUCUGCUGGCUUAUGCAGUGAUGGUGAAUGAACCAGUCAGUGGAAAACUGCUGAGGUGGGACAGCUGGGAGCCAGGGAGCCGAAGCAGUGCU | 1.29
GGUUCUCAUACCAGCACAUCACUAUGCAUCCGUUCGAGGGAGAGAGAGACAAAGACAAAGACUGCCUGCCUUGGAGGGUCACUGAGGGAGACCUGUGCCUGAUUUCAUUA | 13.2
AGUGCUACUGUCUGUGCCCUCCUAGGCCACACAGCCUGAGGGAGCUUGCAUGGGUCUGCCCGUGUCGACAGACCCUAGGCUCCCAGUCUCUCUCCUUCAUGUGCUAUUCU | 0.514
CUGUUACCAUUCAUUGUCUGUGCUGUUUCCCAUUGUGCCCAGCAGUAGCAACAACAAGAUCACAUGGGUGGGGACCCUAGGUCCGGUGGCCAGCUUAUGGCAGGAGCAAA | 0.418
AUCCCUUUUCCUGUCAGUGUUUUUGAAACCCACAGUUUUAGUUGGUGCUGAUGGAGGGAGGGGGAAGUCGAAGGAUGCUCUUUCCCUUUUCUGUUUAGGAAGAAGUGGUA | 0.304
UGGCAUGGUAGCUGAAGCCCACUCCUGUGCAAGCCAUACUGGAACUUCAUAUUGAGAAUAGAAGACGUAGAAAUCAGAUGGAUUUCCAAAGUGGCCAAACUUUUCAACUG | 0.669
UAGGAAAAGUUAUUGUGAUAAAAUAGGAACAGCUGAAAGAUUGAUUAAUGAACUAUUGUUAAUUCUUCCUAUUUUAAUGAAUGACAUUGAACUGAAUUUUUUGUCUGUUA | 0.643
GAGGCACCAGUGUCCUCCCCUCAAGGACAAAGUCUCCAGCCCACGUUCUCUCUGCCUGUGAGCCAGUCUAGUUCCUGAUGACCCAGGCUGCCUGAGCACCUCCCAGCCCC | 0.346
CCAGCCUUGGUUUGGAGCUUGCAGACGUAACUGAAUAUAAUUUCCUCCAUUUGCAGCAUGGUUCCCAUGCCAUUGGCGCACCAGACAGAAAAGGGAGAGAGAAAAGACAG | 0.409
CAGAUUGACAGGGACUUUGCUGGUGUAGUCUUUUUAUAGGUUUUAUAAACCACUUGAGCCUAUAUCAGUCGUUUUAGUGUCUGACCUAAUAUUUGGAGCUAUCAGUGCUU | 0.298

Series 4 — method: RNA Bind-n-Seq; molecule type: RNA; medium: in vitro; tested at: not given; relative to: input RNA pool; reading: higher = stronger binding
Target: RING finger protein unkempt homolog, zinc fingers 1-6, GST-SBP tag (UNK, Homo sapiens, UniProt Q9C0B0, residues 30-357)
Sequence of UniProt Q9C0B0 (30-357, looked up): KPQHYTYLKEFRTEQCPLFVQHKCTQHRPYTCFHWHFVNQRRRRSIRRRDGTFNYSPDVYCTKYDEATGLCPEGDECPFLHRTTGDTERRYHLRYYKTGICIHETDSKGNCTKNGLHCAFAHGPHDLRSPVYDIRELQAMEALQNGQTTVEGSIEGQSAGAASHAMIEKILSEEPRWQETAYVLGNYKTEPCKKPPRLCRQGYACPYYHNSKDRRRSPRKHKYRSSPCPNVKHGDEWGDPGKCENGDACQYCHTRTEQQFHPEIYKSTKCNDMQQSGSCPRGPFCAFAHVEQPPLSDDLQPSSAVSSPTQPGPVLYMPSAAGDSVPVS
Setting: RNA with constant flanks, human-mouse chimeric sites, ends assumed
Shared flanks, not repeated: GGGAGUUCUACAGUCCGACGAUC … CAACAGAGGAUUGAGCAUCA
Oligonucleotide | bound/input enrichment
CCAAGUGAUUCAUCCCAAGGACAGGCCACCCCAUUUGAUGCCUGGACUGAUGACAGUAUGGAAGGGCCUAGUCAAAAUUUUGAAGCUGAGUCAAUUCAGGAUGCCAUGAGUAUGGAAGAG | 0.218 ratio
GGCUGCUGGUGACUGUCGGGAGCCGUCUGGAGUUCCCGCCGGAGCGCGGCCAGACUAAUUUUAGAAAAUGCCAAGUAGGAAGUUUGUCGAUGGUGAAGUGGUCAGAGGCCGAUGGCCUGG | 1.34 ratio
GCAUAUGGUUAUCGAGGAAAGGACUGUAGAGCGAAUGUAUACCUGCUUCCCACAGGGGAGAUAGUUUAUUUUAUCGCCUCAGUGGUAGUCCUGUUUAAUUAUGAGGAGAGGACUCAGCGA | 0.375 ratio
UGUGCAUAUGAUGCUUGGAGAUGGUUUUGCAGAUGCAGAAAUCGCUGCAAGGUAAUCACAAUAGAUAAAAGUGGUAUUUUAAACCUUUGAAAUAAAUGGAUGUAACUGUACCUUGGUACA | 0.714 ratio
GAGCCCAGCCGGCAGUUUGUAAAGGACUCAAUUCGGCUGGUUAAAAGAUGCACCAAACCUGAUAGAAAAGAAUUCCAGAAGAUUGCCAUGGCUACAGCAAUAGGAUUUGCUAUCAUGGGA | 0.172 ratio
GGACAUCUUGUCAGGAUUUAUGUUCCUGUGAAACAAGUGAACACUCUUCAUAUACUAAUCUGCUUGUACAUCUGUAUGAUAGAGAAAUGUAAAUAUGUUAAUCCAAGCAAUGUGUCACUU | 0.26 ratio
UACUCAACUUUCUUGCCACGUUUUGAAUUCCAAGAUGUUAUUCCUCCAGAUGACUUCCUAACGAGUGAUGAAGAGCAAGAUUUGGUUUUAUUUGGAACUAUGAGAGGACAAGUUGUUGGA | 0.125 ratio
CGCUGGCCCAAGCUGAUGGACUCUGAUGGCCUCCAUCUCUCAGGCACGUGUGCCUUCUCUUAGUCCCUUCUGGGUUGAUGUUAUGAAUCUCAGUACUGUGGUUUGAAAGCACCAGCUUUG | 0.296 ratio
UUAAUCCCCUUUACUGCUCCACCACUGCUCAUGGUAAUAACAAAGUCUUAUAUUCCCGUCCUAGCUUUCACUCAGAUGGCUUAUGGAGCCGGUUUCCUAGCUUUCUUGGGAGGGAUCAGA | 0.339 ratio
GCUGAAAAUGAAGAAGAGGCAGCUGAUGUCUGGUACAACCUGGGGCAUGUAGCUGUGGGAAUCGGAGAUACAAACUUGGCCCACCAAUGCUUCAGGCUGGCCCUGGUCAACAACAACCAC | 0.154 ratio
AACAGAUUGUCUUUAAGCAUUCCAAGCGAGAAUGCUGAAAUAGUCAUUGUUGCCCAUGUGCCUUCUGUAAUAGAUGGAAUGCUGUUCCAUGUUACAUCUUUCCUUCACUCCAGAAUUGUU | 0.151 ratio

Series 5 — method: universal PBM; molecule type: double-stranded DNA, one strand shown; medium: in vitro; tested at: not given; reading: higher = stronger binding
Target: Sal-like protein 4, full length isoform B (SALL4, Homo sapiens, UniProt Q9UJQ4-2, residues 1-616)
Setting: 8-mer, flanks averaged, mean of replicates
Target sequence (chain): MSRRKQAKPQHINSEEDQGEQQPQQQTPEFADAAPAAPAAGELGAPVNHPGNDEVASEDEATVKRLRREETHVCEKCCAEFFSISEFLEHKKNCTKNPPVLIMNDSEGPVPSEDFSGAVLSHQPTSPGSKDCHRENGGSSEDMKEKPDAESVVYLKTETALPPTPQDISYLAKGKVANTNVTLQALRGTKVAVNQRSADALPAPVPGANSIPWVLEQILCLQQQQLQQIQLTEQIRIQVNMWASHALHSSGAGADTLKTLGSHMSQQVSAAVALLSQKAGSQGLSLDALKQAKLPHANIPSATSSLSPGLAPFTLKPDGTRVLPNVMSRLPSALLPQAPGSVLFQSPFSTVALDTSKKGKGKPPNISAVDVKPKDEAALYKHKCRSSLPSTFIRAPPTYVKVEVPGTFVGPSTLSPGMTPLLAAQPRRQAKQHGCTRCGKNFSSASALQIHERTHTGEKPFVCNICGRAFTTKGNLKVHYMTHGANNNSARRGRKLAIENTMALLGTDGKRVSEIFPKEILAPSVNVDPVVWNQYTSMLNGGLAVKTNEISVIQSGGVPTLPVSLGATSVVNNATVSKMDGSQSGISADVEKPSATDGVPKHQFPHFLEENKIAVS
Oligonucleotide | E-score
CATTCTGC | 0.00252
CAACAAAG | 0.0336
CTCGGACA | -0.0639
AACTGACA | -0.0419
CGGATTAA | 0.0863
AAGGCGAG | -0.215
AAAGCGAG | 0.0238
ATGAAAAG | 0.119
AATCACCC | -0.0483
AACGTGCC | -0.197
ACTCCTAT | 0.161
CACTATAG | 0.149
CCTGTGGA | -0.218
TGTCAAAA | 0.223
CGTTTCCA | 0.0475
CTAGAAAA | 0.202
AGGATGTG | -0.00707
GAGTGTTA | 0.133
GCCTCAGA | -0.179
CTCGGAAA | -0.0402
GTCGAATA | 0.178
ATCTAGGC | -0.0763
CAGGCATG | -0.0778
CGATGTCA | -0.0143
CTATGCAG | 0.0883

Some of these lines once more (series 1):
Variant | normalised enrichment score
S10E | 0.882
D11L | 0.0234
K6S | 0.0235
S10D | 1.56
K6M | 0.404
S2Y | 0.115
L7V | -0.149
T12S | 0.892
R5V | 0.0385
D11Y | 0.236
